Experimental data gathered from unrelated publications.
Every numbered part comes from another study and shows a few of its results, in no order. Changes are numbered by the printed parent chain. ± gives the spread as reported.
Sequence of UniProt Q05940 (whole entry, looked up): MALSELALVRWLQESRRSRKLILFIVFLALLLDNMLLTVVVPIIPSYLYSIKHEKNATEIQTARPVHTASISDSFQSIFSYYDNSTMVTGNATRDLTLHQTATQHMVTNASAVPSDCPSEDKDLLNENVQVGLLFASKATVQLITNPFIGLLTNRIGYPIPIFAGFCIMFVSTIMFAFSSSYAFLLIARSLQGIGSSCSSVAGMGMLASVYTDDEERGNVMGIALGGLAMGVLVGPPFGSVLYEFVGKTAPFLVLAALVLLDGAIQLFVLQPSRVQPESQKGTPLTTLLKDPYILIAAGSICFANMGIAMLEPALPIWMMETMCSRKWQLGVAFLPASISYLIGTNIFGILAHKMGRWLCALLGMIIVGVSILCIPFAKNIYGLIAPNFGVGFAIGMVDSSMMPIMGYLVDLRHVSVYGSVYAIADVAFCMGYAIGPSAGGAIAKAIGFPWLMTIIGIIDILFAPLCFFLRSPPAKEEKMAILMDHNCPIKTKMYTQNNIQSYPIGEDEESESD
Sequence of UniProt Q9UQM7 (whole entry, looked up): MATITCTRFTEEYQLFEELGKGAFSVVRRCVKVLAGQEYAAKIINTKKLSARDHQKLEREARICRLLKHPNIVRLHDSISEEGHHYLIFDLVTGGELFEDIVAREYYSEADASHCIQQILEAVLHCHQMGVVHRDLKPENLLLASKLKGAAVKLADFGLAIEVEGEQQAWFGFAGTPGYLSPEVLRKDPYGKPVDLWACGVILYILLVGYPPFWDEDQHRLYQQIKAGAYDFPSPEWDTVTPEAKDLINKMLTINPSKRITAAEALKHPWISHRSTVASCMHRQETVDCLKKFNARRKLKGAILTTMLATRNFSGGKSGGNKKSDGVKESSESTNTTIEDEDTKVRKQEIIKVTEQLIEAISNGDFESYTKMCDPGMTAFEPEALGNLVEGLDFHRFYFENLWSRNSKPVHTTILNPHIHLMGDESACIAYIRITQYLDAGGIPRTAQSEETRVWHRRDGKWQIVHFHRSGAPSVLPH

Sample 1 — target: CCNF, cyclin fold, Cln2 fusion (human); technique: yeast growth competition, sequencing; medium: yeast; notes: strong parent motif; relative to: not given; reading: higher = stronger binding; starting sequence: viral docking peptide; TSVRRALFTGGSD
Under “normalised enrichment score”, `G11A` is recorded as 8.69.
For `L7W`, “normalised enrichment score” read 0.547.
`T9W` — result for “normalised enrichment score”: 8.56.

Further values, each from its own experiment
With `NC[C@H](CC(=O)O)c1ccc(Cl)cc1` the inhibition was -1% (CAMK2A (Homo sapiens, UniProt Q9UQM7); enzyme activity, inhibitor; 10 µM).
`O=c1c2c(Cl)cccc2nc([C@@H]2CCCN2)n1-c1cccnc1` gave a remaining compound of over 99.9% (human, microsomes or S9; 2 µM, 0.5 h).
`CN[C@@H](C)Cc1ccccc1` gave a Ki of 6.53 ± 0.38 µM (SLC18A2 (Homo sapiens, UniProt Q05940); [3H]dopamine uptake, inhibitor; HEK293 hVMAT2 membranes).

Repeated from above (sample 1):
For `L7W`, “normalised enrichment score” read 0.547.
